Experimental data of several laboratories.
Each numbered part is a random draw from the data of one study; scales do not carry over between parts. “And” joins repeats or separate records; there may be more than shown.
UniProt P22455, sequence (whole entry, looked up): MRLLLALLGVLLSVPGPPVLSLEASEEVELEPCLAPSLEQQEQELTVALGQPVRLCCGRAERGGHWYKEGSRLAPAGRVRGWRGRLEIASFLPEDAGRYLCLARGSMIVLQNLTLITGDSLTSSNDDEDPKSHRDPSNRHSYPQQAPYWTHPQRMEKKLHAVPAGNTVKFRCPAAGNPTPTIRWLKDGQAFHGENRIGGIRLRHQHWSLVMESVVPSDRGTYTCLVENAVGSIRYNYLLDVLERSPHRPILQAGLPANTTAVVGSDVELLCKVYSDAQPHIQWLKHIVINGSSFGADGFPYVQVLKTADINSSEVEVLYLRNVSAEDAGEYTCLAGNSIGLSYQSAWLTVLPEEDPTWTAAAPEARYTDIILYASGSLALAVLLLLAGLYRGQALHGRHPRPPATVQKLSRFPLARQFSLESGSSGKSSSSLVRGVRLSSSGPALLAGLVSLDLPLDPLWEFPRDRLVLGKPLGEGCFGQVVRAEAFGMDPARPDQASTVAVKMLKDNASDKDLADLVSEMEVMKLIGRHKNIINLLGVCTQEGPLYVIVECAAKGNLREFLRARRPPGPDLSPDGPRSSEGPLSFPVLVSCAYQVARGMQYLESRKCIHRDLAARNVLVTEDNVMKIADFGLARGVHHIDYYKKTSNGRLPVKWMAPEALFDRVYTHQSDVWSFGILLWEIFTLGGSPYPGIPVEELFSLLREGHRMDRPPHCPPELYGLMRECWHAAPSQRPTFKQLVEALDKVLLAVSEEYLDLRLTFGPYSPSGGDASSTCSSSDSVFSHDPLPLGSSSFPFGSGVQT
UniProt P06213, sequence (whole entry, looked up): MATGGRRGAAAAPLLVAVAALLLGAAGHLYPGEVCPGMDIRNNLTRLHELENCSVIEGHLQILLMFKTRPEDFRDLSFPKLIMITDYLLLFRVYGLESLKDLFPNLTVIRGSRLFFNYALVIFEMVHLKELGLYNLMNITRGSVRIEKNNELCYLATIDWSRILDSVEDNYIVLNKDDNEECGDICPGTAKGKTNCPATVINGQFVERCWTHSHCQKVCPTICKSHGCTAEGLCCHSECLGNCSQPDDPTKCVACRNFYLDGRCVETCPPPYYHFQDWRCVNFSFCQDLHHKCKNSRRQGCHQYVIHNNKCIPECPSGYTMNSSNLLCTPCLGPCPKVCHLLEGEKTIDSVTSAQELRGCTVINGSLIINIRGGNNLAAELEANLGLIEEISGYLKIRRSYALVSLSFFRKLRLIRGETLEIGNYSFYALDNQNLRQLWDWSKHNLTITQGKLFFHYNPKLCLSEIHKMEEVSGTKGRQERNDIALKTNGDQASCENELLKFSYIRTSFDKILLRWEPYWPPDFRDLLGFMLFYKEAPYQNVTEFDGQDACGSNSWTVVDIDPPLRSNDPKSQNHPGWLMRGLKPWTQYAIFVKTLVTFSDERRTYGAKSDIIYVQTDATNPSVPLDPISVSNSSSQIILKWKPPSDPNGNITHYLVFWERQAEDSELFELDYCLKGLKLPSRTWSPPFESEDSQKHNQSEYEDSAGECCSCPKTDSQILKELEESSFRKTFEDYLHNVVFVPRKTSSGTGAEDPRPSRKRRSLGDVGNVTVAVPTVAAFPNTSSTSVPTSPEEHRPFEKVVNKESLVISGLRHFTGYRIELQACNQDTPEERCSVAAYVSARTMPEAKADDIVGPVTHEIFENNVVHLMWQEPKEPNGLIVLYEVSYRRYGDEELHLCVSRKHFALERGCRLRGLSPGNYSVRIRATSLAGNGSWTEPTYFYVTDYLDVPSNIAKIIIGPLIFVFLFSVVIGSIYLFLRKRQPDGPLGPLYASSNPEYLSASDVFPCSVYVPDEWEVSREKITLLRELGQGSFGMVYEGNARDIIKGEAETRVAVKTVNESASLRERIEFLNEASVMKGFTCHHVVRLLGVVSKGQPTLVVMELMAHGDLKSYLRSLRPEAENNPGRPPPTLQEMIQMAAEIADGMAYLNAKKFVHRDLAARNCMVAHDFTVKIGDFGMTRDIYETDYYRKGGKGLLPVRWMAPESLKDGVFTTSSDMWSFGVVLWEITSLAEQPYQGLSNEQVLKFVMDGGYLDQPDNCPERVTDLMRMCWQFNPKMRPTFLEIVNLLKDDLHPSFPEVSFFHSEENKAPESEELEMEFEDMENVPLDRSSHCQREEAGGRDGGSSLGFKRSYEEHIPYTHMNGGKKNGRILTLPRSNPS
UniProt Q8IWQ3, sequence (whole entry, looked up): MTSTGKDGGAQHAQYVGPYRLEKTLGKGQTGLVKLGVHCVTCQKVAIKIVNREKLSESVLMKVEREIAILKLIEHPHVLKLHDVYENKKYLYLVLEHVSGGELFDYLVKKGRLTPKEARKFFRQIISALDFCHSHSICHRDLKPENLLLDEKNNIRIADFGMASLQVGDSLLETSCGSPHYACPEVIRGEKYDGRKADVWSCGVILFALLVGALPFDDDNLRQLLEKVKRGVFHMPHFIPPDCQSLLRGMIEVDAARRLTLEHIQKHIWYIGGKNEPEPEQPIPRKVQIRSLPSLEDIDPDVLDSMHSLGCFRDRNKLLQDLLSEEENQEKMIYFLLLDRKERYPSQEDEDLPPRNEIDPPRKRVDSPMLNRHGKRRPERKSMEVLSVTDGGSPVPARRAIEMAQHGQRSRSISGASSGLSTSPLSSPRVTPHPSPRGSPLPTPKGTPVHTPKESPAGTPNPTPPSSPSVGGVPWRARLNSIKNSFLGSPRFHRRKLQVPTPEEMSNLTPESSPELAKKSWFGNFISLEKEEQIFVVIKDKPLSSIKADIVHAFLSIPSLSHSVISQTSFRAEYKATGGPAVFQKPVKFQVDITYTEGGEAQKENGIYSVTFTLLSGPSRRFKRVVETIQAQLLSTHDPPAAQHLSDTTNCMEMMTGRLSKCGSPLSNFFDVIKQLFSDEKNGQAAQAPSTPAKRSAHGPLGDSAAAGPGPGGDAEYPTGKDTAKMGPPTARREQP
UniProt Q9NQU5, sequence (whole entry, looked up): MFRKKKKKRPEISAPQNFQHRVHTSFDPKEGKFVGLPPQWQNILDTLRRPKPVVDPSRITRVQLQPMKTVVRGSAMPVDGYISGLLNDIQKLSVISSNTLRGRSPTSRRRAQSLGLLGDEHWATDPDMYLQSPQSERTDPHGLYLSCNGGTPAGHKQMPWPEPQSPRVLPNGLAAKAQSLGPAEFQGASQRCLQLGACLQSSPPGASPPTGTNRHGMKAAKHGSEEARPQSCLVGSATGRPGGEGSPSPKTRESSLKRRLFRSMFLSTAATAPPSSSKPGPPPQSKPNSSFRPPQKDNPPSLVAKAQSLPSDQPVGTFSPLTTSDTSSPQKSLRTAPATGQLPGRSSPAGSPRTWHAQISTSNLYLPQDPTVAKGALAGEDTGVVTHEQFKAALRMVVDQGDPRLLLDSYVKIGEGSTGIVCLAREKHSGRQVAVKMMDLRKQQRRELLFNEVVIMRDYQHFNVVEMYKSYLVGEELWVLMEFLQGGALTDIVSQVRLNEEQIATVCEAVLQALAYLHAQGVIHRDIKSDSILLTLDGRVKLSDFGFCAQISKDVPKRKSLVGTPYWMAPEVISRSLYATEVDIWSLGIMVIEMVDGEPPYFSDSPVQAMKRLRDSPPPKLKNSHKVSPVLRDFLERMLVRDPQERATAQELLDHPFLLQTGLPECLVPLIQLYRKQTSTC
UniProt Q96BR1, sequence (whole entry, looked up): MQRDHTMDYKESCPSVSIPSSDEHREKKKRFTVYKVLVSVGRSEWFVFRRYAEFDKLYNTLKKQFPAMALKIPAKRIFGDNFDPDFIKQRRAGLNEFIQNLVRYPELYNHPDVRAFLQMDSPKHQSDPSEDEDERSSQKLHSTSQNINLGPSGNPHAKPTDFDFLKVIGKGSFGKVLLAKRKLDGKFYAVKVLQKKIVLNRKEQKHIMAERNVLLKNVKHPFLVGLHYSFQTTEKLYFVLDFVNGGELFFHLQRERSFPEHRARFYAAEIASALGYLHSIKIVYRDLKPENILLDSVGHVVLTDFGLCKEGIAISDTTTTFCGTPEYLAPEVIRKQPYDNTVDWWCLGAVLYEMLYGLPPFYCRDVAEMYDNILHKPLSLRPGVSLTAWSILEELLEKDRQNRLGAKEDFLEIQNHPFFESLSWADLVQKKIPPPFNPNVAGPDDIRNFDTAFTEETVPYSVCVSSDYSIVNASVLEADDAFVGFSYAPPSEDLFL
UniProt Q9NYY3, sequence (whole entry, looked up): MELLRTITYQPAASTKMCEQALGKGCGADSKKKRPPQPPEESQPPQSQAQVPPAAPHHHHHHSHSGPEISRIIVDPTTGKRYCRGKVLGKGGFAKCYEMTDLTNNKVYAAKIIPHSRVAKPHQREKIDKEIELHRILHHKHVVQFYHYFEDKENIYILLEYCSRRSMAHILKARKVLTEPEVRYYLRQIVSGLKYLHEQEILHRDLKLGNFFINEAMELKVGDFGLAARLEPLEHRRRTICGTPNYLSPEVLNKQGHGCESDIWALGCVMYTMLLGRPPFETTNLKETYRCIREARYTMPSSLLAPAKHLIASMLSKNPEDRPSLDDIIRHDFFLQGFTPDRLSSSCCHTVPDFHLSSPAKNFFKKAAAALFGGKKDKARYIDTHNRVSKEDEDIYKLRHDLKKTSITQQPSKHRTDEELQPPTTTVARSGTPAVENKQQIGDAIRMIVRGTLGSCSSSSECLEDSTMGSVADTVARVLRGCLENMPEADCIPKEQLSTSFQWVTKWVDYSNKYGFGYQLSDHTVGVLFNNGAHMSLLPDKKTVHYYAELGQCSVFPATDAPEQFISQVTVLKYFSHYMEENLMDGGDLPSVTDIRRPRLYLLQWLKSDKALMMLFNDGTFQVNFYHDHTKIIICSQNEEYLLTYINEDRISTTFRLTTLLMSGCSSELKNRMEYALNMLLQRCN

Study 1 — dose: dose not given; reference: vehicle
SMILES: CC(=O)N[C@@H](Cc1c[nH]c2ccccc12)C(=O)N[C@@H](CCC(=O)C=[N+]=[N-])C(=O)OC(C)C
refers to	species	medium	log2 fold change
levulinate	mouse, EL4 tumour	tumour	-0.0868
dimethylarginine (ADMA + SDMA)	Mus musculus	EL4 tumour	0.197
creatinine	mouse, EL4 tumour-bearing	EL4 tumour	1.17
2-methylcitrate/homocitrate	mouse, EL4 tumour-bearing	EL4 tumour	0.386

Study 2 — technique: PRP chromatography; setting: linear fit, 1 mL
SMILES	logD 1,9-decadiene/water
CC(C)C[C@@H]1NC(=O)[C@H](C)NC(=O)[C@H](Cc2cscn2)NC(=O)[C@H](C)NC(=O)[C@H](C(C)C)NC(=O)[C@H](CC(C)C)NC(=O)[C@@H](CC(C)C)NC1=O	-2.98 log units
CC(C)C[C@@H]1NC(=O)[C@H](CC(C)C)NC(=O)[C@H](CC(C)C)NC(=O)[C@H](C(C)C)NC(=O)[C@H](C(C)C)NC(=O)[C@H](Cc2cscn2)NC(=O)[C@H](C)NC1=O	-2.15 log units
CC(C)C[C@@H]1NC(=O)[C@H](C)NC(=O)[C@@H](CC(C)C)NC(=O)[C@H](CC(C)C)NC(=O)[C@@H](Cc2cscn2)NC(=O)[C@H](CC(C)C)NC(=O)[C@@H](CC(C)C)NC1=O	-4.87 log units

Study 3 — observed: cell-free assay; technique: competition with immobilised ligand; concentration: 1 µM
SMILES: COc1ccc2c(c1)O[C@H](c1ccc(OC)c(OC)c1)C[C@@H]2NC(=O)C1(c2ccc3c(c2)OC(F)(F)O3)CC1
target	remaining binding [%]
Serine/threonine-protein kinase Sgk3 (SGK3, Homo sapiens, UniProt Q96BR1)	100
Calcium/calmodulin-dependent protein kinase type II subunit gamma (CAMK2G, Homo sapiens, UniProt Q13555)	100
Serine/threonine-protein kinase BRSK2 (BRSK2, Homo sapiens, UniProt Q8IWQ3)	88
Serine/threonine-protein kinase PLK2 (PLK2, Homo sapiens, UniProt Q9NYY3)	100
Leucine-rich repeat serine/threonine-protein kinase 2 (LRRK2, Homo sapiens, UniProt Q5S007, G2019S)	100
Fibroblast growth factor receptor 4 (FGFR4, Homo sapiens, UniProt P22455)	100
Dual specificity protein kinase CLK3 (CLK3, Homo sapiens, UniProt P49761)	100
Serine/threonine-protein kinase PAK 6 (PAK6, Homo sapiens, UniProt Q9NQU5)	100
Phosphatidylinositol 4-kinase beta (PI4KB, Homo sapiens, UniProt Q9UBF8)	81
eIF-2-alpha kinase GCN2, C-terminal kinase domain (EIF2AK4, Homo sapiens, UniProt Q9P2K8, S808G)	97
Mast/stem cell growth factor receptor Kit (KIT, Homo sapiens, UniProt P10721, D816H)	100
NT-3 growth factor receptor (NTRK3, Homo sapiens, UniProt Q16288)	92
Insulin receptor (INSR, Homo sapiens, UniProt P06213)	82
Serine/threonine-protein kinase B-raf (BRAF, Homo sapiens, UniProt P15056)	92
Serine/threonine-protein kinase WNK3 (WNK3, Homo sapiens, UniProt Q9BYP7)	100

Study 4 — technique: Incucyte 3D growth; concentration: 30 µM; reading: higher = more growth
SMILES: CC(C)(C(=O)O)[C@H](NC(=O)Cc1cccc(I)c1)c1ccc2oc(=O)[nH]c2c1
cell line	time	spheroid area
NCI-H358	258 h	1.15e+07 a.u. and 8.98e+06 a.u. and 1.02e+07 a.u. and 1.12e+07 a.u. and 1.03e+07 a.u.
A375	480.52 h	1.61e+08 a.u. and 1.59e+08 a.u. and 1.52e+08 a.u. and 1.48e+08 a.u. and 1.4e+08 a.u. and 1.77e+08 a.u.
IPC-298	276 h	2.63e+07 a.u. and 4.63e+07 a.u. and 4.05e+07 a.u. and 2.62e+07 a.u. and 3.24e+07 a.u. and 3.51e+07 a.u.
PC-9	168 h	1.44e+09 a.u. and 1.42e+09 a.u. and 1.53e+09 a.u. and 1.45e+09 a.u. and 1.54e+09 a.u.
IPC-298	282 h	4.6e+07 a.u. and 2.68e+07 a.u. and 3.45e+07 a.u. and 3.43e+07 a.u. and 4.11e+07 a.u. and 2.74e+07 a.u.

Study 5 — cell line: HaCaT; concentration: 100 µM; time: 36 h
SMILES	viability [%]
O=C(O)c1cc(O)c(O)c(O)c1	11.9
COc1cc(O)c(C(=O)Nc2nc(C(=O)NCCN(C(C)C)C(C)C)cs2)cc1OC	93.1
CC(C)OC(=O)C(C(=O)OC(C)C)=C1SC=CS1	28
CCN(CCCc1ccccc1)CCCc1ccccc1	4.6
